Results collected from several papers.
Each numbered part is a random draw from the data of one study; scales do not carry over between parts. Positions count from the first letter of the parent shown.

Set 1
Target: Histone acetyltransferase KAT6A, both winged helices, GST fusion (KAT6A, Homo sapiens, UniProt Q92794, residues 1-181)
Method: protein binding microarray
Molecule type: double-stranded DNA, one strand shown
Sample: in vitro
Concentration: not given
Setting: 8-mer, flanks averaged, mean of 2 arrays, mostly near background
Reference: not given
Reading: higher = stronger binding
Residues (chain): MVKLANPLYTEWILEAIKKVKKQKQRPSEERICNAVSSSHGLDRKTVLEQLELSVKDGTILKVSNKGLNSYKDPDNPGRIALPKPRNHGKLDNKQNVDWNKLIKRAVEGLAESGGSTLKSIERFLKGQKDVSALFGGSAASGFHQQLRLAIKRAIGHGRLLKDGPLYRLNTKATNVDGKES
Oligonucleotide	E-score
CGGAGTCC	0.0218
ACCCTCGG	-0.0723
CTGCTACA	-0.0165
AGTCTACG	-0.106
ATTATAGG	-0.0429
CCAGGCCG	0.0429
ACTCAGTA	-0.0216

Set 2
Target: Ras GTPase-activating protein-binding protein 1, full length (G3BP1, Homo sapiens, UniProt Q13283)
Chain of UniProt Q13283 (whole entry, looked up): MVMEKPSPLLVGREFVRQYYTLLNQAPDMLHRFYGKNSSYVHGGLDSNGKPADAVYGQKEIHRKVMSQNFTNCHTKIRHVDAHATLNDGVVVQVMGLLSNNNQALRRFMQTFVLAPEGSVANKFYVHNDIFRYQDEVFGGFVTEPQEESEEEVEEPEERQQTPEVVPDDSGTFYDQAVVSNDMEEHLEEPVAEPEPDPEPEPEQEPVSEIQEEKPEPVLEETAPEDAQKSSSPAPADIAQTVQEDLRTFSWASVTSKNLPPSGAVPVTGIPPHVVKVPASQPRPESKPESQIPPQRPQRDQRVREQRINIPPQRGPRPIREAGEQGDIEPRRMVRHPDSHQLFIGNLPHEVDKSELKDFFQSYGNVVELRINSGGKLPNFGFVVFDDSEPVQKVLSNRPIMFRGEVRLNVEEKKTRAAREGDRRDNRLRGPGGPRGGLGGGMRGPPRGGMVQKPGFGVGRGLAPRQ
Method: RNA Bind-n-Seq
Molecule type: RNA
Sample: in vitro
Concentration: 200 nM
Setting: whole 134-nt RNA, ends assumed
Added: 150 mM KCl
Reference: input library
Reading: higher = stronger binding
All sequences stand within: GGGAGUUCUACAGUCCGACGAUC … UGGAAUUCUCGGGUGUCAAGG
Oligonucleotide	log2 enrichment
AAGUCCUGUGCUACACAUCGUAUGUACCGAAUCGGGGCCCGGGGCCCGGGCCCGGGAAAGUAUUAUGUUACGCCGUUCGGAUCUGCACUU	-1.14
AGUCCUGUGCUACACAUCGUAUGUACCGAAUCGGGGUUUUGGGGUUUUGGUUUUGGGAAAGUAUUAUGUUACGCCGUUCGGAUCUGCACU	-0.353
AGUCCUGUGCUACACAUCGUAUGUACCGAAUCGGGGAAAAGGGAAAAGGAAAAGGGGAAAGUAUUAUGUUACGCCGUUCGGAUCUGCACU	0.158
UGUGCUACACAUCGUAUGUACCGAAUCGGGGUUUUUUUGGGGUUUUUUUGGGGUUUUUGGGGAAAGUAUUAUGUUACGCCGUUCGGAUCU	-0.571
AGUCCUGUGCUACACAUCGUAUGUACCGAAUCGGUUUUUGGUUUUUUUGGAAAAAGGAAAGUAUUAUGUUACGCCGUUCGGAUCUGCACU	-1.52

Set 3
Target: CCND3, cyclin fold, Cln2 fusion (human)
Method: yeast growth competition, sequencing
Sample: yeast
Setting: weak parent motif
Reference: not given
Reading: higher = stronger binding
Starting sequence: BRCA2 docking peptide (human); PSIKRNLLNEFDR; partner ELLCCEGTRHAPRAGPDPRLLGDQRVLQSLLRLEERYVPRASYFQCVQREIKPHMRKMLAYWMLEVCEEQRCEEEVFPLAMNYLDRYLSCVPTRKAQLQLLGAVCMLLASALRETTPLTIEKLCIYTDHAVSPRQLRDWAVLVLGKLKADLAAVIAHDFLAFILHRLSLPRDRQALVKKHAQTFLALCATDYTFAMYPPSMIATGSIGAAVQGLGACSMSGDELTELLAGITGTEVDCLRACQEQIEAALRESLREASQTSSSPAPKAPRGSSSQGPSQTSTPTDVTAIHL
Substitution	normalised enrichment score
R13S	0.166
L8R	0.0186
L8Y	0.109
S2D	0.106
N9L	0.15
L8V	0.123

Other studies, line by line
Molecule	target	test	system	setting	how to read	quantity	value
PhoQ, residues 284 288 289 292 302 303 QWGLFV	PhoP, residues 12 14 15 18 19 TTLRV (Escherichia coli, UniProt P23836)	Sort-seq, item: YFP reporter	E. coli	PhoQ-PhoP variant library, added: 10 µM Mg2+	reference: high Mg2+ state, higher = stronger signaling	fold induction	5.16

Some of these lines once more (set 3):
Substitution	normalised enrichment score
N9L	0.15
L8V	0.123
